Published values gathered from unrelated publications.
Values joined by “and” are separate records of one study, mostly repeats; a detail may differ. ± marks the error that the study gave.
CNR2: Cannabinoid receptor 2 (CNR2, Homo sapiens, UniProt P34972)
cah: cah (Neisseria gonorrhoeae, UniProt Q50940)
DRD1: D(1A) dopamine receptor (DRD1, Homo sapiens, UniProt P21728)
HDAC11: Histone deacetylase 11 (HDAC11, Homo sapiens, UniProt Q96DB2)
MAOA: Amine oxidase [flavin-containing] A (MAOA, Homo sapiens, UniProt P21397)
NAA40: N-alpha-acetyltransferase 40 (NAA40, Homo sapiens, UniProt Q86UY6)

CCOC(=O)C(CC)(CCCSCCOCCOCCN)NC(=O)c1ccc(C2CC2)c(Cc2ccc(F)cc2)n1 (racemic)  Ki (CNR2; ligand displacement, radioligand; cell membranes): 38 nM
O=C1CCc2c(ccc3ccccc23)O1  Ki (cah; enzyme activity, inhibitor, stopped-flow): 12700 nM
Cn1ccc2c(N3CCN(CCCCOc4ccc5c(c4)NC(=O)CC5)CC3)cccc21  Ki (DRD1; ligand displacement, radioligand): > 10000 nM
Cc1c(OS(=O)(=O)Oc2ccc(C(C)C)cc2)cccc1C(=O)NO  Ki (HDAC11): 178 nM
NCCCC[C@@H](NN)C(=O)O  Ki (Inducible lysine decarboxylase (Hafnia alvei, UniProt G9Y9L1)): 4200 ± 1000 nM
O=C1c2cc(O)cc(O)c2C(=O)c2c(O)cc(CO)cc21  Ki (MAOA; enzyme activity, inhibitor): 28800 nM
CN1CC[C@@H](COc2cnc(C#N)cc2-c2ccn3nc(NC(=O)C4CC4)cc3c2)C1  Ki (YES1 (Homo sapiens, UniProt P07947); enzyme activity, inhibitor): 85 nM
CCOC(=O)C(CC)(CCCSCCOCCOCCN=[N+]=[N-])NC(=O)c1ccc(C2CC2)c(Cc2ccc(F)cc2)n1 (stereo not shown)  Ki (CNR2; ligand displacement, radioligand; cell membranes): 60 nM
CC(C)c1ccc(OS(=O)(=O)Oc2cncc(C(=O)NO)c2)cc1  Ki (HDAC11): 2080 nM
CC(C)(COP(=O)(O)OP(=O)(O)OC[C@H]1O[C@@H](n2cnc3c(N)ncnc32)[C@H](O)[C@@H]1OP(=O)(O)O)[C@@H](O)C(=O)NCCC(=O)NCCSCC(=O)N[C@@H](CO)C(=O)NCC(=O)N[C@@H](CCCNC(=N)N)C(=O)NCC(=O)N[C@@H](CCCCN)C(=O)NCCCC[C@H](NC(=O)CC[C@@H]1NC(=O)[C@@H](CCCNC(=N)N)NC(=O)[C@H](CCCNC(=N)N)NC(=O)[C@@H](CCCNC(=N)N)NC(=O)[C@H](CCCNC(=N)N)NC(=O)[C@H](Cc2csc3ccccc23)NC(=O)[C@@H](Cc2ccccc2)NC(=O)[C@H](Cc2ccccc2)NC1=O)C(N)=O  Ki (NAA40; enzyme activity, inhibitor, fluorescence): 39 nM
OCC1OC(n2cnc3c(NCc4ccc(Br)s4)ncnc32)C(O)C1O (stereo not shown)  Ki (ADORA2A (Homo sapiens, UniProt P29274); ligand displacement, radioligand): 1700 nM
CCOC(=O)C(CC)(CCCSCCOCCOCCOCCN)NC(=O)c1ccc(C2CC2)c(Cc2ccc(F)cc2)n1 (stereo not shown)  Ki (CNR2; ligand displacement, radioligand; cell membranes): 18 nM
CC[C@H]1CN([C@@H](CC)c2ccc(C(F)(F)F)cc2)[C@H](CC)CN1c1nc(=O)n(C)c2ccc(C#N)nc12  Ki (DGKA (Homo sapiens, UniProt P23743); enzyme activity, inhibitor, fluorescence): 11 nM
CC[C@H](C)[C@@H]1NC(=O)[C@H](Cc2ccccc2C(F)(F)F)NC(=O)CCSCc2cccc(n2)CSCCCNC(=O)[C@H](CCCCCC(=O)N(O)CCCCCCCl)NC1=O  Ki (HDAC11; enzyme activity, inhibitor, fluorescence): 13 nM
O=C(O)CCNC(=S)NCCCC[C@H](NS(=O)(=O)c1cccc(F)c1)C(=O)N[C@@H](Cc1c[nH]c2ccccc12)C(=O)NC1CCC1  Ki (SIRT5 (Homo sapiens, UniProt Q9NXA8); enzyme activity, inhibitor): 2.5 nM
C=C1C[C@@]2(C(=O)OC)C=C(C(=O)Nc3cccc(C(=O)Nc4ccc(Nc5nccc(-c6cccnc6)n5)c(C)c4)c3)C(=O)[C@@H]1C2  Ki (MAPK8 (Homo sapiens, UniProt P45983); SPR two-step binding model; wild-type protein surface): 3.1 nM
Cc1cc(O)c2c(c1O)C(=O)c1cc(O)cc(O)c1C2=O  Ki (MAOA; enzyme activity, inhibitor): 5060 nM
CC(C)(COP(=O)(O)OP(=O)(O)OC[C@H]1O[C@@H](n2cnc3c(N)ncnc32)[C@H](O)[C@@H]1OP(=O)(O)O)[C@@H](O)C(=O)NCCC(=O)NCCSCCC(=O)N[C@@H](CO)C(=O)NCC(=O)N[C@@H](CCCNC(=N)N)C(=O)NCC(=O)N[C@@H](CCCCN)C(=O)NCCCC[C@H](NC(=O)CC[C@@H]1NC(=O)[C@@H](CCCNC(=N)N)NC(=O)[C@H](CCCNC(=N)N)NC(=O)[C@@H](CCCNC(=N)N)NC(=O)[C@H](CCCNC(=N)N)NC(=O)[C@H](Cc2csc3ccccc23)NC(=O)[C@@H](Cc2ccccc2)NC(=O)[C@H](Cc2ccccc2)NC1=O)C(N)=O  Ki (NAA40; enzyme activity, inhibitor, fluorescence): 23 nM
CCc1c(Cl)cccc1N1CCN(C[C@@H](F)CCNC(=O)c2cc3ccccc3[nH]2)CC1  Ki (DRD1; ligand displacement, radioligand; cell membranes): > 10000 nM
Cc1ccnc(OC[C@H]2CN(CCN3CCc4ccccc43)CCO2)c1  Ki (DRD1; binding; with: [3H]SCH23390): > 10000 nM
CCOC(=O)C(CC)(CCCSCCOCCNc1ccc([N+](=O)[O-])c2nonc12)NC(=O)c1ccc(C2CC2)c(Cc2ccc(F)cc2)n1 (stereo not shown)  Ki (CNR2; ligand displacement, radioligand; cell membranes): 22 nM
CCCCCCC(=O)N[C@H]1CCOC1=O  Ki (cah; enzyme activity, inhibitor, stopped-flow): > 100000 nM
Cc1nc(-c2c[nH]c(C(=O)Nc3ncccc3O)c2)cs1  Ki (Serine protease 1 (PRSS1, Homo sapiens, UniProt P07477); mixed inhibitor, Z-GPR-pNA substrate): 174000 nM and 234000 nM and 201000 nM
O=C1CCCCO1  Ki (cah; enzyme activity, inhibitor, stopped-flow): 67200 nM
CCOC(=O)C(CC)(CCCSCCCCCCNC(=O)OC(C)(C)C)NC(=O)c1ccc(C2CC2)c(Cc2ccc(F)cc2)n1 (stereo not shown)  Ki (CNR2; ligand displacement, radioligand; cell membranes): 140 nM
COC1CN([C@H]2CC[C@H]([C@@]3(C)Oc4c(Cl)cc(C(=O)NCc5c(SC)cc(C)[nH]c5=O)c(C)c4O3)CC2)C1  Ki (Histone-lysine N-methyltransferase EZH1, in PRC2 complex (EZH1, Homo sapiens, UniProt Q92800); differential scanning fluorimetry; extrapolated from Tm, with: activator peptide): 0.0067 nM
CCOC(=O)C(CC)(CCCSCCOCCNC(=O)OC(C)(C)C)NC(=O)c1ccc(C2CC2)c(Cc2ccc(F)cc2)n1 (stereo not shown)  Ki (CNR2; ligand displacement, radioligand; cell membranes): 112 nM
CC(=O)N[C@@H](CC(C)C)C(=O)N[C@@H](CC(C)C)C(=O)N[C@@H](CC(C)C)C(=O)N[C@@H](CC(C)C)C(=O)N[C@@H](CCCNC(=N)N)C(=O)N[C@H](C(=O)N[C@@H](CCCCN)C(=O)N[C@@H](CCCNC(=N)N)C(N)=O)C(C)C  Ki (Proprotein convertase subtilisin/kexin type 7 (Homo sapiens, UniProt Q16549); enzyme activity, inhibitor): 1690 nM

Excerpt of the above:
OCC1OC(n2cnc3c(NCc4ccc(Br)s4)ncnc32)C(O)C1O (stereo not shown)  Ki (ADORA2A (Homo sapiens, UniProt P29274); ligand displacement, radioligand): 1700 nM
CCOC(=O)C(CC)(CCCSCCOCCOCCOCCN)NC(=O)c1ccc(C2CC2)c(Cc2ccc(F)cc2)n1 (stereo not shown)  Ki (CNR2; ligand displacement, radioligand; cell membranes): 18 nM
CC[C@H]1CN([C@@H](CC)c2ccc(C(F)(F)F)cc2)[C@H](CC)CN1c1nc(=O)n(C)c2ccc(C#N)nc12  Ki (DGKA (Homo sapiens, UniProt P23743); enzyme activity, inhibitor, fluorescence): 11 nM
